# Measurements of several laboratories.
# Values joined by “and” are separate records of one study, mostly repeats; a detail may differ. Numbers after ± are the reported error.
Compound,test,system,setting,how to read,endpoint,value
NC1(C(=O)N[C@@H](CCO)c2ccc(Cl)cc2)CCN(c2nc[nH]c3nccc2-3)CC1,,metastatic CRPC patients,"400 mg b.i.d., grade 3 to 4, treatment-related, with: enzalutamide 160 mg daily",,incidence of Somnolence,0%
COc1ccc([C@@H](O)c2cc(-c3ncnc4cc(N5CCOCC5)ccc34)c(F)cc2Cl)nn1,,locally advanced rectal cancer,"all dose levels overall, with: capecitabine and radiotherapy",,"TEAE, investigations",53%
COc1cccc(-c2n[nH]c(SCc3ccccn3)n2)c1OC,,"Sprague-Dawley rat, female, plasma","oral gavage, 100 mg/kg",,Cmax,98.9 µg/mL
CCOC(=O)N1C[C@@H](c2ccccc2O)N[C@@H](c2ccc(C(F)(F)F)cc2)C1,"shake-flask, LC-HRMS",aqueous buffer,"16 h, pH 6.8",,solubility,< 4 µM
C=CC(=O)N1CCC([C@@H]2CCNc3c(C(N)=O)c(-c4ccc(Oc5ccccc5)cc4)nn32)CC1,,healthy human volunteers,"oral, dose not given",,any treatment-emergent adverse event,14%
CCOC(=O)N1C[C@@H](c2ccccc2O)N[C@@H](c2cccnc2)C1,"shake-flask, LC-HRMS",aqueous buffer,"16 h, pH 6.8",,solubility,> 750 µM
COc1ccc2c(c1)CN(C(=O)CCN1CCC(Cc3ccccc3)CC1)CC[S@@+]2[O-],telemetry,conscious male beagle dogs,"intravenous, 2 mg/kg, 0.5 h",,QRS duration,32 ± 9 ms
COc1cccc(NC(=O)CSc2nnnn2C)c1,,aqueous buffer,pH 7.4,,solubility,48.6 µg/mL
O=C(Nc1nc2cccc(-c3ccc(CN4CCS(=O)(=O)CC4)cc3)n2n1)C1CC1,item: metabolism and nutrition disorders,human rheumatoid arthritis patients,"oral, 200 mg once daily, 4 weeks, regardless of relatedness",,treatment-emergent adverse events,0%
C[C@H]1OC[C@H](c2cccnc2)N[C@@H]1c1ccc2ccccc2c1,"shake-flask, LC-HRMS",aqueous buffer,"16 h, pH 6.8",,solubility,< 4 µM
CC=CC1CCC(C2CCC(CCC)CC2)CC1 (stereo not drawn),,"rat, placenta","5000 ng/mL in perfusate, high dose, mixture of 21 LCMs",,placental accumulation,353 ± 585 ng/g
Cc1ccc([C@@H]2O[C@H](CO)[C@@H](O)[C@H](O)[C@H]2O)cc1Cc1ccc(-c2ccc(F)cc2)s1,,Japanese type 2 diabetes patients,"400 mg, day 15, 24 h urine collection",reference: baseline,urinary calcium excretion change,-23.5 mg
Cc1noc(C)c1Cn1cc(N2C(=O)CN(Cc3cccc(O)c3)C2=O)cn1,,pooled rat liver microsomes Sprague-Dawley,"1 µM, 10 min, pH 7.4",,remaining parent,68 % peak area
Cc1cc(NC2CCc3cc(Cl)ccc3C2)n2nc(C(C)(F)F)nc2n1 (stereo not drawn),,"NSG mouse, whole blood","oral, 10 mg/kg",,AUC(0-t),6.51 µM·h
Cc1cc([C@H]2C[C@H]3[C@@H](CF)SC(N)=N[C@@]3(c3ccc(F)cc3F)CO2)on1,,"129/SVE wild-type mouse, male","subcutaneous, 30 mg/kg, 5 h",,CSF concentration,149 nM
O=C(Nc1ccc(OC(F)(F)Cl)cc1)c1cnc(N2CC[C@@H](O)C2)c(-c2ccn[nH]2)c1,"item: Amylase increase, grade ≥3","human patients, dose-finding study","oral, sample A of sample B patients",,patients with event,7.1%
C[C@@H](N)c1cc(Cl)ccc1Cn1c(=S)[nH]c(=O)c2[nH]ccc21,,human severe renal impairment,"oral, 2.5 mg single dose",,subjects with severe adverse events,0%
Cc1ccc([C@H]2N[C@@H](c3ccc(C(C)(C)C)cc3)CO[C@@H]2C)cn1,"shake-flask, LC-HRMS",aqueous buffer,"16 h, pH 6.8",,solubility,< 4 µM
Cn1ncnc1[C@H]1c2n[nH]c(=O)c3cc(F)cc(c23)N[C@@H]1c1ccc(F)cc1,,"human patients, plasma","oral, 600 µg/m2/day, day 6",,AUCτ,193 ± 58 ng·h/mL
Cn1cc(Nc2nc(N)nc(-c3cccc(-n4ccc5cc(C6CC6)cc(F)c5c4=O)c3CO)n2)cn1,,"healthy humans, fed","oral tablet, 300 mg twice daily (multiple dose), 14 (unit not given)",reference: subjects,vomiting incidence,0%
Cc1ccc(Sc2ccccc2N2CCNCC2)c(C)c1,item: ALT increased,healthy adult men,"oral, 5 mg daily, 12 days",,participants with TEAE,16.7%
O=C(O)CCCCCCCCCCC(=O)O,,"human, plasma","oral, dose not given, control",,Cmin,18.5 ± 2.4 nM
CN1CCC[C@H](CN2c3ccccc3Sc3ccccc32)C1.Cl,,"ICR mouse female fasted, lung","oral, 16 mg/kg",,AUC(0-t),51900 ng·h/mL
COc1cc(Nc2ncc3c(n2)-c2ccc(Cl)cc2C(c2c(F)cccc2OC)=NC3)ccc1C(=O)O,"item: back pain, grade 2","cancer patients, phase 1/2","oral, dose not given, with: pembrolizumab",,patients with adverse event,4%
CN1CCN(C(=O)CN(c2cc(C(F)(F)F)ccc2Cl)S(=O)(=O)c2ccccc2)CC1,,aqueous buffer,pH 7.4,,solubility,14.3 µg/mL
Cc1cc(-c2cn[nH]c2-c2cccc(OCc3cccc(C#N)c3)c2)cc(C)n1,,C57BL/6 mouse,"intraperitoneal, 200 mg/kg single dose",,tolerability,not toxic
Cc1c(-c2ccc(N3CCc4cccc(C(=O)Nc5nc6ccccc6s5)c4C3)nc2C(=O)O)cnn1CC12CC3(C)CC(C)(C1)CC(OCCNCC[C@H](O)CO)(C3)C2,,"beagle dog, anaesthetised","intravenous infusion, 0.1 mg/kg/min, 10 min",reference: baseline,mean arterial pressure change,-2 mmHg
O=c1[nH]c(=O)n([C@H]2C[C@H](O)[C@@H](CO)O2)cc1CCCCC[18F],,"male CD-1 nu/nu mice, RG2 tumour, liver","intravenous, dose not given, 2 h",,biodistribution,0.38 ± 0.05 %ID/g
O=C(NO)c1ccc(CN(c2cnccn2)c2cnccn2)cc1,item: fatigue,human,"oral, dose not given, treatment-related, all dose cohorts",,patients with adverse event,10%
COc1ccc2[nH]c([S+]([O-])Cc3ncc(C)c(OC)c3C)nc2c1 (stereo not drawn),,"healthy Chinese volunteers, plasma","oral, 20 mg, enteric-coated tablets, CYP2C19 intermediate metabolizers",,AUC(0-inf),838 ± 502 ng·h/mL
Cn1cnc2ccc(Nc3c(F)ccc(NS(=O)(=O)N4CC(F)C4)c3Cl)c(Cl)c2c1=O,item: lipase increased any grade,human patients,"dose not given, monotherapy trial",reference: patients,patients with lipase increased,3%
CN1CCC(CNc2ccc3ncc(-c4cccc(OC(F)(F)F)c4)n3n2)CC1,"organ toxicity signature, BioMAP Diversity PLUS",primary human cell cocultures,,,lowest toxic concentration,≥ 1.1 µM
CCc1cc(C(=O)NC)c2nccc(N3CCc4c(cc(Cn5ccnc5)cc4-c4cn(C)nc4C(F)(F)F)C3=O)c2c1,,"Sprague Dawley rat, male, plasma","oral, 100 mg/kg twice daily, 7 days",,MRT(0-inf),9.1 h
CC(C)(C)c1ccc([C@H]2COC[C@H](c3ccc(Cl)cc3)N2)cc1,"shake-flask, LC-HRMS",aqueous buffer,"16 h, pH 6.8",,solubility,< 4 µM
CC(=O)O[C@@]12CO[C@@H]1C[C@H](O)[C@@]1(C)C(=O)[C@H](O)C3=C(C)[C@@H](OC(=O)[C@H](O)[C@@H](NC(=O)OC(C)(C)C)c4ccccc4)C[C@@](O)([C@@H](OC(=O)c4ccccc4)[C@H]21)C3(C)C,,SNEDDS preconcentrate,24 h,,equilibrium solubility,15.3 ± 2.16 mg/g
N[C@@H](C[18F])C(=O)O,PET imaging,"female athymic nude mice, U-87 MG xenograft, muscle","intravenous, 15 min",,tracer uptake,1.23 ± 0.13 %ID/cc
O=C(O)CSc1nnc(Br)n1-c1ccc(C2CC2)c2ccccc12,,"KM mouse, chronic hyperuricaemia model","dose not given, day 13",,body weight,35.8 g and 28 g and 33.8 g and 32 g and 32.2 g and 27.8 g
O=C(COc1ccc(Cl)cc1)NC12CC(c3nnc([C@H]4C[C@@H](OC(F)(F)F)C4)o3)(C1)C2,item: abnormal haematology test,"healthy humans, both sexes","oral, 15 mg, single ascending dose",reference: subjects,treatment-emergent adverse events,16.7%
O=C1NCCc2nc(OCc3cccc(F)c3)ccc21,item: Writhing,Sprague-Dawley rat male,"oral, 100 mg/kg, 0 min","reference: baseline, direction not given",Irwin test score,0
O=c1[nH]c(=O)n([C@@H]2O[C@H](CO)[C@@H](O)[C@@H]2F)cc1CCCC[18F],,"nude mice, RG2 tumour, skin","intravenous, dose not given, 2 h",,biodistribution,0.13 ± 0.03 %ID/g
CC[C@H](C)[C@H](NC(=O)[C@H](Cc1ccccc1)NC(=O)[C@H](CCC(=O)O)NC(=O)[C@H](CCCCNC(=O)COCCOCCNC(=O)COCCOCCNC(=O)CC[C@H](NC(=O)CCCCCCCCCCCCCCCCC(=O)O)C(=O)O)NC(=O)[C@H](C)NC(=O)[C@H](C)NC(=O)[C@H](CCC(N)=O)NC(=O)CNC(=O)[C@H](CCC(=O)O)NC(=O)[C@H](CC(C)C)NC(=O)[C@H](Cc1ccc(O)cc1)NC(=O)[C@H](CO)NC(=O)[C@H](CO)NC(=O)[C@@H](NC(=O)[C@H](CC(=O)O)NC(=O)[C@H](CO)NC(=O)[C@@H](NC(=O)[C@H](Cc1ccccc1)NC(=O)[C@@H](NC(=O)CNC(=O)[C@H](CCC(=O)O)NC(=O)C(C)(C)NC(=O)[C@@H](N)Cc1cnc[nH]1)[C@@H](C)O)[C@@H](C)O)C(C)C)C(=O)N[C@@H](C)C(=O)N[C@@H](Cc1c[nH]c2ccccc12)C(=O)N[C@@H](CC(C)C)C(=O)N[C@H](C(=O)N[C@@H](CCCNC(=N)N)C(=O)NCC(=O)N[C@@H](CCCNC(=N)N)C(=O)NCC(=O)O)C(C)C,,healthy humans,"subcutaneous, 0.25 to 1.5 mg weekly, escalated, 16 weeks, Severe severity",,subjects with adverse events,0%
O=c1c2cc(Cl)c(CO)cc2[nH]c(=S)n1Cc1cccnc1,,mouse,"oral, 10 mg/kg",,AUC(0-t),62 ng·h/mL

# A few entries again:
Compound,test,system,setting,how to read,endpoint,value
Cc1ccc(Sc2ccccc2N2CCNCC2)c(C)c1,item: ALT increased,healthy adult men,"oral, 5 mg daily, 12 days",,participants with TEAE,16.7%
CCOC(=O)N1C[C@@H](c2ccccc2O)N[C@@H](c2cccnc2)C1,"shake-flask, LC-HRMS",aqueous buffer,"16 h, pH 6.8",,solubility,> 750 µM
O=C(O)CSc1nnc(Br)n1-c1ccc(C2CC2)c2ccccc12,,"KM mouse, chronic hyperuricaemia model","dose not given, day 13",,body weight,35.8 g and 28 g and 33.8 g and 32 g and 32.2 g and 27.8 g
O=C(O)CCCCCCCCCCC(=O)O,,"human, plasma","oral, dose not given, control",,Cmin,18.5 ± 2.4 nM
